Experimental data of several laboratories.
Protocols differ between the studies behind these lines. Values joined by “and” are separate records of one study, mostly repeats; a detail may differ. ± marks the error that the study gave.
Chain of UniProt P27361 (whole entry, looked up): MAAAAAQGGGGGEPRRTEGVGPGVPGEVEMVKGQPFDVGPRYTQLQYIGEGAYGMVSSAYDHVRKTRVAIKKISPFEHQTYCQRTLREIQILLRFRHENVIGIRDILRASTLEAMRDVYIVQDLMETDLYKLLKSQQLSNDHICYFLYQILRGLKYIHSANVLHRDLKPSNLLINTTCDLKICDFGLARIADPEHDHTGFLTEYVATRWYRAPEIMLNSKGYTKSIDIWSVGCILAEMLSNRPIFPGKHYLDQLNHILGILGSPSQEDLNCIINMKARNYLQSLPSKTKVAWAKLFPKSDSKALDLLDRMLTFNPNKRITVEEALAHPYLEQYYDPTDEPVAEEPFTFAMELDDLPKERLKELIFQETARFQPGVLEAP
Chain of UniProt P06276 (whole entry, looked up): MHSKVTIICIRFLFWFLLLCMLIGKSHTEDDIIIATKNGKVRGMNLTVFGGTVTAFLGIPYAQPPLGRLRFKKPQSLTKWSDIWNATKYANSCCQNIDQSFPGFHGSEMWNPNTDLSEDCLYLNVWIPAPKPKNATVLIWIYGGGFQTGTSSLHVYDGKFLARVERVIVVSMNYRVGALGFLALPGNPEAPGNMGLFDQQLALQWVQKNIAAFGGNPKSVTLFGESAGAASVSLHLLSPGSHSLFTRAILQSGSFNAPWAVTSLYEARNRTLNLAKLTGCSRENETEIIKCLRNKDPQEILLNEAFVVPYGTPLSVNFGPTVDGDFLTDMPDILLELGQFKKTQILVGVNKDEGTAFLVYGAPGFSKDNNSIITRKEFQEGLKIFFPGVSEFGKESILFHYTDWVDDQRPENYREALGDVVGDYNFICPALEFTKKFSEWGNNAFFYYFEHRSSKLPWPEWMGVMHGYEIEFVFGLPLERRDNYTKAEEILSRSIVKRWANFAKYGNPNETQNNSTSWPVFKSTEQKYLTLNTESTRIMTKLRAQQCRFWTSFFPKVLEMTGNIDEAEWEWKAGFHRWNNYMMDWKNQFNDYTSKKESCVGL
Chain of UniProt Q86Z02 (whole entry, looked up): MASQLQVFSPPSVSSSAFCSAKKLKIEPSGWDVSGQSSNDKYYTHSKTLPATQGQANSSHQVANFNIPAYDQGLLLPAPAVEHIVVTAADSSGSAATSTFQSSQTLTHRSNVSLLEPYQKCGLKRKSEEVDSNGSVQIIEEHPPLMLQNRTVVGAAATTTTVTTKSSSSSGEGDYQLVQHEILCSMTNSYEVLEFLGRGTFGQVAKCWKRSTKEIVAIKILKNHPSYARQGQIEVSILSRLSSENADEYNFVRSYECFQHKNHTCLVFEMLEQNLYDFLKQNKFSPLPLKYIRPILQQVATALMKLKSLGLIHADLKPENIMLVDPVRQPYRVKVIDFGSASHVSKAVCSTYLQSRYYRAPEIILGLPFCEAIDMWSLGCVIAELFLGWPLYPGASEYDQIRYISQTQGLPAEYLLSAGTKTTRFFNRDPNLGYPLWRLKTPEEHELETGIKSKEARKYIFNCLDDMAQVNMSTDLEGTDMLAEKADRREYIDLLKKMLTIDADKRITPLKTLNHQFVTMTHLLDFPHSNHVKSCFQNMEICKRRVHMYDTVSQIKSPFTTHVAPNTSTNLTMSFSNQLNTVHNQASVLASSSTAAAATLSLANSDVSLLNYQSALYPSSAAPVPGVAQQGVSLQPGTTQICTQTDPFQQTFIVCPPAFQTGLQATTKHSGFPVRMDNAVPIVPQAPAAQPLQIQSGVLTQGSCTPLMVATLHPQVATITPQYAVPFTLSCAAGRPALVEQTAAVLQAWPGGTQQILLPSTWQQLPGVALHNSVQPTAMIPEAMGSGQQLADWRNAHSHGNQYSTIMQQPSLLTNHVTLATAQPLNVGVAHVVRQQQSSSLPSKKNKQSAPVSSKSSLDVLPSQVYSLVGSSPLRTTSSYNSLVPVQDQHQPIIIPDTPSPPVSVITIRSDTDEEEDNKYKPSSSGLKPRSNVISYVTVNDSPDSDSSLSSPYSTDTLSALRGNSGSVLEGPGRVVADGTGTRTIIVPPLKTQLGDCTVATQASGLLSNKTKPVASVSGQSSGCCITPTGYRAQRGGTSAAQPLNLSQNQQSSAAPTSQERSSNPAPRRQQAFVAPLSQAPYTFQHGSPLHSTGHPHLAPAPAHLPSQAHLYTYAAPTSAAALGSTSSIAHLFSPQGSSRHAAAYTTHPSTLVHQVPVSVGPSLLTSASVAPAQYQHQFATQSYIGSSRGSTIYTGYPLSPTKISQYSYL
Chain of UniProt P29322 (whole entry, looked up): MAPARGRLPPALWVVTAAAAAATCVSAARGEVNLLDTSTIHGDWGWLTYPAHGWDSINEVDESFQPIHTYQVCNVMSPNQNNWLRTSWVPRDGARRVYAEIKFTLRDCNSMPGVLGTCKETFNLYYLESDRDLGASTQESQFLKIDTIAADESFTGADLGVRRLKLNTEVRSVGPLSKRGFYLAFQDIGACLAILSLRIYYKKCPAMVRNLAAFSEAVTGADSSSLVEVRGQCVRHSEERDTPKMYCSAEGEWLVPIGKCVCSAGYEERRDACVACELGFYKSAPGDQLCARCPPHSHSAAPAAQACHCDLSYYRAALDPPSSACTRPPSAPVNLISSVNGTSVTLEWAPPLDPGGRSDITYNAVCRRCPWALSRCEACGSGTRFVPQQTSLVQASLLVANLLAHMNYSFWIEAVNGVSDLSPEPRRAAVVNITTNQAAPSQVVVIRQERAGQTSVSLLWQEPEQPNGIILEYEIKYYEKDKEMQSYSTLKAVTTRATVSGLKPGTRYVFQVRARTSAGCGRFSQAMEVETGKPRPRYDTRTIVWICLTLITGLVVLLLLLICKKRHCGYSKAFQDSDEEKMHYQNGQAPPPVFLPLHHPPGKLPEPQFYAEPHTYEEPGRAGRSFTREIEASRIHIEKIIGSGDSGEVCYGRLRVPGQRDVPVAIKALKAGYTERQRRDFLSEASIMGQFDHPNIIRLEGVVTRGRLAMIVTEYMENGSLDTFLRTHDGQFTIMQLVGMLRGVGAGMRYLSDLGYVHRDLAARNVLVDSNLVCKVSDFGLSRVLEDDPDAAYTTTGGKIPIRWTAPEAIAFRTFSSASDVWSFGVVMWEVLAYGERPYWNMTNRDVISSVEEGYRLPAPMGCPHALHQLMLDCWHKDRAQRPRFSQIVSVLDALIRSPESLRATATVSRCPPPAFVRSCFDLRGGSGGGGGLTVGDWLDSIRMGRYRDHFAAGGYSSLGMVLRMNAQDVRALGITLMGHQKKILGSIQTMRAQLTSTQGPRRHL
Chain of UniProt P06213 (whole entry, looked up): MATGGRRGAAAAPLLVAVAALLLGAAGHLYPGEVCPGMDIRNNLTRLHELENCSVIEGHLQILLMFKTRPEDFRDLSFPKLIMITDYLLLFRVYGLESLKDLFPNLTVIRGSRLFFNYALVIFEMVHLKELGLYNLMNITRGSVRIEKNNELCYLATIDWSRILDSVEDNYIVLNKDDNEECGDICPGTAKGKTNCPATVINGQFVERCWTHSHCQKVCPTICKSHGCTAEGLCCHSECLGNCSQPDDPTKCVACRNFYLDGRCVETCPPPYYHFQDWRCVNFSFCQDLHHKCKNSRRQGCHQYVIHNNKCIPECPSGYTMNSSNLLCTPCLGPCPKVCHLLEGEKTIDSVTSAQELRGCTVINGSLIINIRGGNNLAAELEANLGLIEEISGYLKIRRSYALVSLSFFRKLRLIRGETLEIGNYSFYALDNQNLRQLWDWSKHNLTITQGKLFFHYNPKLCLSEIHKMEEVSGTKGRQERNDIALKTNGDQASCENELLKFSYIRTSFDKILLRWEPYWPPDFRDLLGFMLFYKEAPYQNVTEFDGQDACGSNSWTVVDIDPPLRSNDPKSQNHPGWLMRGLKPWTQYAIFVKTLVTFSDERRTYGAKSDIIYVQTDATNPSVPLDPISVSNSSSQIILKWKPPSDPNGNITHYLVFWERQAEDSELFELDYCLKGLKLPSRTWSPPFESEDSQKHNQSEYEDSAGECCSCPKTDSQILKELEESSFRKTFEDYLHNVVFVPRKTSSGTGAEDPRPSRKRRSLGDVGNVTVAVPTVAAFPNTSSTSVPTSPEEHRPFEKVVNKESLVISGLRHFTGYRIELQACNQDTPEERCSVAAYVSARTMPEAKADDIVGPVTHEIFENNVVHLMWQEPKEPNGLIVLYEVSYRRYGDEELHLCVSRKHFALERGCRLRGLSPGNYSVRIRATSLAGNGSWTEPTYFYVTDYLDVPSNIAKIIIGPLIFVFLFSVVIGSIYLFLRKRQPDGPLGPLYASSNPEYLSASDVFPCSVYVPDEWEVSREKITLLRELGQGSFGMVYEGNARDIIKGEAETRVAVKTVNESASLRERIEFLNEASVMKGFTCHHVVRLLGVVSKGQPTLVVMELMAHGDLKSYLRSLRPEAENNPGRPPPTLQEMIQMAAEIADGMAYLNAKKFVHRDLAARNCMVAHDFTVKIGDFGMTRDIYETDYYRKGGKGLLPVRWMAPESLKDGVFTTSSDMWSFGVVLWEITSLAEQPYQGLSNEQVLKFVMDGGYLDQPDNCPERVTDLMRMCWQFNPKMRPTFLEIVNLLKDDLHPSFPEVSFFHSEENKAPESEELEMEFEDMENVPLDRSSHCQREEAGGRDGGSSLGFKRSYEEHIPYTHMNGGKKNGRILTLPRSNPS
Chain of UniProt P35462 (whole entry, looked up): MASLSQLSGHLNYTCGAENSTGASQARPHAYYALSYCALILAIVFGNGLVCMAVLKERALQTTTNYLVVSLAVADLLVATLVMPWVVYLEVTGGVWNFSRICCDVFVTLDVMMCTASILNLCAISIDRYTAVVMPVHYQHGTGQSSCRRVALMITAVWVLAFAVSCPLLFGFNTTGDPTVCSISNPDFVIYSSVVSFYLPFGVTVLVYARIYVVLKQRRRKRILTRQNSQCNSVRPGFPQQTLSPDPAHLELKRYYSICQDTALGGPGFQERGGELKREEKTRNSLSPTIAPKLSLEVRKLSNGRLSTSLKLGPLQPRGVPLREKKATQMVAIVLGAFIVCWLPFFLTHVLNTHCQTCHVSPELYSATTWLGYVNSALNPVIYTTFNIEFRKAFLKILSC

C=CCc1ccccc1OCC(O)CNC(C)C (stereo not shown)  IC50 (Plasmodium falciparum; D10): 10000 nM
Cc1onc(-c2c(Cl)cccc2Cl)c1C(=O)N[C@@H]1C(=O)N2[C@@H]1SC(C)(C)[C@@H]2C(=O)O  kinact/KI (Penicillin-binding protein 2B (Streptococcus pneumoniae, UniProt P0A3M6); inhibitor): 3300 ± 620 M⁻¹ s⁻¹
Cc1cn([C@H]2C[C@H](O)[C@@H](COP(=O)(O)OP(=O)(O)OP(=O)(O)O)O2)c(=O)[nH]c1=O  kcat (Gag-Pol polyprotein, reverse transcriptase (gag-pol, Human immunodeficiency virus type 1 group M subtype B, UniProt P04585, K653R); nucleotide misincorporation, steady-state kinetics; K66R RT, with: matched template/primer, template T): 0.21 ± 0.0297 s⁻¹
CC(C(O)c1ccccc1)N(C)CCOC(c1ccccc1)c1ccccc1 (stereo not shown)  efficacy (Cholinesterase (BCHE, Homo sapiens, UniProt P06276); concentration not given, Triton): -97.1 ± 12.4%
CC[C@@H](C)[C@@H](NC(=O)[C@@H](Cc1ccc(O)cc1)NC(=O)[C@H]1CCCN1C(=O)[C@@H](CCCNC(=N)N)NC(=O)[C@H](N)Cc1c[nH]cn1)C(=O)N[C@H](C)C(=O)N[C@H](Cc1c[nH]cn1)C(=O)N[C@H](CCCNC(=N)N)C(=O)N[C@H](CCCCNC(=O)c1cccc(S(=O)(=O)F)c1)C(=O)N[C@H](Cc1ccc(O)cc1)C(=O)N[C@H](CO)C(=O)N[C@H](Cc1ccccc1)C(N)=O  surface TFRC expression (Transferrin receptor protein 1 (Tfrc, Mus musculus, UniProt Q62351); flow cytometry; DC2.4; 24 h, pH 6, replicate 1, unit not given; relative to: 0 h): 0.416
CCN(C)C(=O)Oc1ccc(CCC(=O)N2CCC(Cc3ccccc3)CC2)cc1OC  selectivity ratio (Cholinesterase (BCHE, Equus caballus, UniProt P81908); Ellman; equine serum BuChE; relative to: AChE IC50 over BuChE IC50): 4
Cc1[nH]c(C)c(S(=O)(=O)Nc2ccc(S(F)(F)(F)(F)F)c(Cl)c2)c1C(=O)N1CCC(F)(F)C1  Imax (DRD3 (Homo sapiens, UniProt P35462); β-arrestin recruitment, agonist, PathHunter; relative to: dopamine): 89 ± 1%
O=C(Nc1cccnn1)N1CCC(=Cc2cccc(Oc3ccc(C(F)(F)F)cn3)c2)CC1  inhibition (glycine transporter, rat; binding; 50 µM, with: [3H]glycine): 85%
CN1CCN(c2cc(-c3ccncc3)c(-c3ccc4ccccc4c3)nn2)CC1  activation (DRD2 (Homo sapiens, UniProt P14416); agonist, FLIPR; 12.5 µM): -1.1%
CC(C)C[C@H](NC(=O)C[C@H](O)[C@H](CC(C)C)NC(=O)[C@H](Cc1c[nH]cn1)NC(=O)CNC(=O)[C@@H](NC(=O)[C@H](C)NC(=O)[C@H](Cc1c[nH]c2ccccc12)NC(=O)[C@H](CCC(N)=O)NC(=O)[C@@H](Cc1ccccc1)NC(=O)CCNC(=O)CCSc1nnc(NCCC(=O)NCCC(=O)NCCCC[C@H](NC(=O)N[C@@H](CCC(=O)O)C(=O)O)C(=O)O)c2c1CCC1C(CC2)C1COC(=O)NCCNC(=O)CC[C@H](C(=O)O)N1CCN(CC(=O)O)CCN(CC(=O)O)CC1)C(C)C)C(N)=O (stereo partly shown) [gallium-68 labelled]  tissue uptake (athymic NMRI nude mouse, intestine; intravenous, 533 pmol, 2 h): 0.24 %ID/g
COc1cc(Nc2ncc(F)c(Nc3ccc4c(n3)NC(=O)C(C)(C)O4)n2)cc(OC)c1OC  inhibition (Insulin receptor (INSR, Homo sapiens, UniProt P06213); KINOMEscan; 10 µM): 65%
CN(C(=O)n1cnc(-c2ccc[n+]([O-])c2)c1)C1CCCCC1  inhibition (CCKBR (Homo sapiens, UniProt P32239); radioligand binding; 10 µM): 4%
C[N+]1(CCF)[C@@H]2CC[C@H]1C[C@@H](OC(=O)C(O)(c1ccccc1)c1ccccc1)C2 (stereo partly shown)  efficacy (Cholinesterase (BCHE, Homo sapiens, UniProt P06276); concentration not given, Triton): -90 ± 11.7%
Nc1nc2c(ncn2[C@@H]2O[C@H](COP(=O)(O)OP(=O)(O)OP(=O)(O)O)[C@@H](O)[C@H]2O)c(=O)[nH]1  binding enthalpy (GTP 3',8-cyclase (moaA, Staphylococcus aureus, UniProt P69848, R17K); isothermal titration calorimetry; concentration not given, 25 °C, R17K mutant, anaerobic): -7.03 ± 0.32 kcal/mol
CN(C(=O)n1cnc(-c2ccc[n+]([O-])c2)c1)C1CCCCC1  fold change (Abhydrolase domain-containing protein 11 (Rattus norvegicus, UniProt D3ZXK4); enzyme activity, ABPP; rat, brain; oral, 100 mg/kg/day, 1 days; relative to: vehicle): -2.8
[2H]c1c([2H])c([C@]2([2H])CCCN2C(=O)C(C)(C)Oc2ccc3cn[nH]c3c2)c([2H])c([2H])c1C([2H])([2H])[2H]  remaining binding (CDK5 (Homo sapiens, UniProt Q00535); KINOMEscan; 1 µM; relative to: DMSO control): 98%
Clc1ccc(-c2ccc(Cl)cc2Cl)cc1  IC25 (Androgen receptor (AR, Homo sapiens, UniProt P10275); reporter gene, antagonist; 24 h, with: DHT 2 nM): 1400 nM
COc1cc(N)c(Cl)cc1C(=O)NC1CN2CCC1CC2 (stereo not shown)  log2 fold change (GPR101 (Homo sapiens, UniProt Q96P66); β-arrestin recruitment, TANGO luminescence; concentration not given; relative to: basal luminescence): -0.027
COc1ccc(N2C(=O)N(c3c(C)cccc3Cl)Cc3cnc(Nc4ccc(C5CCN(C)CC5)cc4OC)nc32)nc1  inhibition (EPHA8 (Homo sapiens, UniProt P29322); kinase activity; 0.5 µM): 97%
CC[C@H](CO)Nc1nc(NCc2ccccc2)c2ncn(C(C)C)c2n1  binding score (HIPK1 (Homo sapiens, UniProt Q86Z02); KINOMEscan; 10 µM; direction not given): 5.9
CCCCCCCCCCCCc1ccc([C@H]2CC[C@H]([N+](C)(C)CCC)CC2)cc1.[I-]  Ki/Km ratio (SPHK2 (Homo sapiens, UniProt Q9NRA0); inhibitor, radiometric flash-plate; cell lysate; with: sphingosine 5 µM): 1.6
Cc1cc(=O)oc2cc(OCCCC[Se]C#N)ccc12  selectivity ratio (CA12 (Homo sapiens, UniProt O43570); stopped-flow CO2 hydration; relative to: Ki CA I over Ki CA XII): > 1940
COC(=O)[C@@]1(O)C[C@H]2O[C@]1(C)n1c3ccccc3c3c4c(c5c6ccccc6n2c5c31)C(=O)NC4  kinase activity (MAPK3 (Homo sapiens, UniProt P27361); ADP-Glo; 1.58 µM, with: MBP substrate): 9.24% and 4.55% and 6.51%
CC[C@H](C)[C@H]1O[C@]2(C=C[C@@H]1C)C[C@@H]1C[C@@H](C/C=C(\C)[C@@H](O[C@H]3C[C@H](OC)[C@@H](O[C@H]4C[C@H](OC)[C@@H](O)[C@H](C)O4)[C@H](C)O3)[C@@H](C)/C=C/C=C3\CO[C@@H]4[C@H](O)C(C)=C[C@@H](C(=O)O1)[C@]34O)O2  normalized score (GABA-A receptor; alpha-1/beta-2/gamma-2 (Rattus norvegicus, UniProt P18508+P62813+P63138); membrane potential, agonist, QP-DHM primary screen; HEK293 expressing GABAA; 10 µM; direction not given): 0.722
COc1ncccc1-c1cnn2ccc(N3CCN(C(=O)OC(C)C)CC3)nc12  remaining binding (Ribosomal protein S6 kinase alpha-1, N-terminal kinase domain (RPS6KA1, Homo sapiens, UniProt Q15418); KINOMEscan binding; 1 µM; relative to: untreated control): 100%
O=C(Nc1cnccc1Cl)N1CCN(Cc2ccc3c(c2)OC(F)(F)O3)CC1  inhibition (glycine transporter, rat; binding; 10 µM, with: [3H]glycine): -8%
O=C(c1ccc(Cl)cc1)N1CCN2C(=O)N(OC(=O)N3CCOc4ccccc43)C(=O)C2C1 (stereo not shown)  mean protein ratio (FAP (Homo sapiens, UniProt Q12884); MS-based ABPP; SW-620 conditioned medium; 10 µM, 1 h, 37 °C; relative to: compound over DMSO, lower = more inhibition): 0.96
O=C(Cc1ccc(Cl)c(Cl)c1)N1CCCCC1CN1CCCC1 (stereo not shown)  IC50 (Plasmodium falciparum; W2): 2000 nM
CCCCOP(=O)(O)C(C)=O  IC50 fold increase (dxs (Pseudomonas aeruginosa, UniProt Q9KGU7, R106A); inhibitor, DXPS-IspC coupled; relative to: wild-type enzyme): 15 fold
Nc1ncnc2c1ncn2[C@@H]1O[C@H](COP(=O)(O)OP(=O)(O)NP(=O)(O)O)[C@@H](O)[C@H]1O  binding enthalpy (ΔH) (Cell cycle histidine kinase CckA, cytoplasmic region (Caulobacter vibrioides, UniProt Q9X688); isothermal titration calorimetry; Caulobacter crescentus; concentration not given, 12 °C, with: c-di-GMP 100 µM): -2.5 kcal/mol
C[C@H]1CN(c2n[nH]c3nc(N[C@H]4CC[C@H](NS(=O)(=O)CCC(F)(F)F)CC4)ncc23)CCO1  remaining binding (MAPK11 (Homo sapiens, UniProt Q15759); Kinobeads competition; HEK293, K562, placenta lysate; 0.8 µM, unit not given; relative to: vehicle): 0.44

A few entries again:
O=C(Nc1cnccc1Cl)N1CCN(Cc2ccc3c(c2)OC(F)(F)O3)CC1  inhibition (glycine transporter, rat; binding; 10 µM, with: [3H]glycine): -8%
O=C(c1ccc(Cl)cc1)N1CCN2C(=O)N(OC(=O)N3CCOc4ccccc43)C(=O)C2C1 (stereo not shown)  mean protein ratio (FAP (Homo sapiens, UniProt Q12884); MS-based ABPP; SW-620 conditioned medium; 10 µM, 1 h, 37 °C; relative to: compound over DMSO, lower = more inhibition): 0.96
O=C(Cc1ccc(Cl)c(Cl)c1)N1CCCCC1CN1CCCC1 (stereo not shown)  IC50 (Plasmodium falciparum; W2): 2000 nM
